Measurements pooled from the literature.
Compare with care: the assays were run in different laboratories. ± marks the error that the study gave. ≈ marks a conversion by molar mass, not a printed value.

Under “trough concentration (C24)”, C[C@@H]1CCO[C@H]2Cn3cc(C(=O)NCc4ccc(F)cc4F)c(=O)c(O)c3C(=O)N12 is recorded as 692 ng/mL (human paediatric patients, weight 6 to under sample A kg, plasma; oral, 12.8 mg granules, 24 h, steady state, geometric mean, population PK post-hoc, N 6).
For CCCCC[C@H]1CC[C@H](c2ccc(OCC)c(F)c2F)CC1, “median fetal accumulation” read 1.04 ng/g (rat, fetus; 10 ng/mL in perfusate, low dose, mixture of 21 LCMs).
The intercompartmental clearance of NC(=O)c1cnc2[nH]ccc2c1N[C@@H]1[C@@H]2CC3C[C@H]1C[C@@](O)(C3)C2 is reported as 9.15 L/h (healthy human volunteers, plasma; oral, population PK model, bootstrap median).
Under “subjects with any TEAE”, Cc1cc(-c2nccc3c2ccn3CC(=O)Nc2ccc(-c3cnccn3)cn2)ccn1 is recorded as 66.7% (human; 20 mg once daily, multiple ascending dose).
With C/C(=N\c1ccc(O)cc1)c1cc2ccccc2n1C the remaining compound was 106 ± 9.3% (rat plasma; 1.5 ng/mL, 15 days, -80 °C; reference: nominal concentration).
CC(C)(O)c1ccccc1CC[C@@H](SCC1(CC(=O)O)CC1)c1cccc(/C=C/c2ccc3ccc(Cl)cc3n2)c1 has a blood-to-plasma ratio of 0.58 (fresh human whole blood; 1 µM, pH 7.4).
CN(CCCN1CCN(C(=O)CN2CCN(CC(=O)[O-])CCN(CC(=O)[O-])CCN(CC(=O)[O-])CC2)CC1)c1ccc2nccc(C(=O)NCC(=O)N3CC(F)(F)C[C@H]3C#N)c2c1.[68Ga+3] has an uptake of 0.6 ± 0.1 %IA/g (mouse HT-1080-hFAP and HT-1080 xenografts, HT-1080 wild-type tumour; intravenous, 500 pmol, 1 h).
N#Cc1ccc2c(c1)[C@H]1CCCN(C(=O)c3ccc4[nH]cnc4c3)[C@H]1C2 gave a DHEA-S level of 6.7 µmol/L (human males; 240 mg, end of trial).
CC/C=C\C/C=C\C/C=C\C/C=C\C/C=C\C/C=C\CCC(=O)O.Cc1cc(/C=C/C#N)cc(C)c1Nc1ccnc(Nc2ccc(C#N)cc2)n1 gave a kinetic solubility of under 50000 µg/mL (Peceol).
The AUC(0-inf) of Cc1cccc(CNC(=O)c2cn(CCNC(=O)c3ccccc3S)c3cc4c(cc3c2=O)OC(F)(F)O4)n1 is reported as 105 ± 7.56 ng·h/mL (Sprague-Dawley rat, male, plasma; intravenous, 5 mg/kg of parent drug).
With C[C@@H](Oc1ccc(S(C)(=O)=O)cc1C(=O)N1C[C@@H]2C[C@]2(c2cc(C(F)(F)F)on2)C1)C(F)(F)F the Vz/F was 346 L (elderly humans, plasma; oral, 25 mg once daily, single dose, geometric mean).
Under “dose-normalised Cmax at steady state”, COc1cc(C(=O)NC2CCN(C)CC2)c(F)cc1Nc1ncc(C(F)(F)F)c(Oc2cccc3c2C(=O)N(C)C3)n1 is recorded as 5.92 nmol/L per mg (human patients, plasma; oral, 10 mg once daily repeated, geometric mean).
For CC(C)c1nc(N(C)S(C)(=O)=O)nc(-c2ccc(F)cc2)c1/C=C/[C@@H](O)C[C@@H](O)CC(=O)O, “participants with TEAE” read 3.4% (item: Headache; human; oral, 10 mg).
Under “Neutrophil count decreased dose reduction/interruption”, CNC(=O)c1ccc(-c2cnc3ncc(Cc4ccc5ncccc5c4)n3n2)cc1F is recorded as 2% (Japanese patients; oral, 400 mg, any grade).
For O=C(Nc1ccc(OC(F)(F)Cl)cc1)c1cnc(N2CC[C@@H](O)C2)c(-c2ccn[nH]2)c1, “grade ≥2 event rate” read 0.4% (per treatment cycle, item: AST increase; human patients; oral, dose not given, 28 day cycle, dose-finding study).
O=C(Nc1nc2cccc(-c3ccc(CN4CCS(=O)(=O)CC4)cc3)n2n1)C1CC1 — result for “treatment-emergent adverse events”: 0% (item: chills; human rheumatoid arthritis patients; oral, 75 mg once daily, 4 weeks, regardless of relatedness).
CCC(C)n1ncn(-c2ccc(N3CCN(c4ccc(OCC5COC(Cn6cncn6)(c6ccc(Cl)cc6Cl)O5)cc4)CC3)cc2)c1=O (stereo not drawn): “trough plasma concentration” 140 ng/mL (human, plasma; oral, dose not given, day 14 predose, mean).
N#CC1CCCN(c2nc(-c3ccccn3)nc3ccccc23)C1 (stereo not drawn) gave a kinetic solubility of 77 µg/mL (≈ 244 µM) (Japanese Pharmacopoeia disintegration test solution 2; pH 6.8).
c1cc(-c2ccc3ncnc(Nc4ncco4)c3c2)nc(N2CCOCC2)n1 gave a thermodynamic solubility of 3 µM (≈ 1.13 µg/mL) (0.1 M phosphate buffer; pH 7.4, 25 °C).
With O=C(O)c1cc(/N=N/c2ccc(S(=O)(=O)Nc3ccccn3)cc2)ccc1O the thermodynamic solubility was 6.35 ± 0.33 mg/g (shake-flask; Cremophor ELP; 37 °C, water up to 0.5% w/w).
Cc1nc2cccc(OCC(C)(C)C(=O)NC(C)C)c2c(N)c1C(=O)O — result for “micronucleated PCE per 14000 PCE”: 5 (male Swiss albino CD-1 mouse, bone marrow; oral, 2000 mg/kg, 24 h).
